Assay results of several laboratories.
Lines come from different studies, so protocols differ. Numbers after ± are the reported error.
Cell line: RAW264.7

`CC(=O)Oc1ccc(Cn2cc(F)c(=O)[nH]c2=O)cc1C1OC(c2ccc(Cl)cc2)=NN1C(C)=O` (stereo not shown) gave a CC50 of 19.2 µM (cell growth or viability, resazurin).
`O=c1c2ccccc2oc2nc(N3CCCCC3)sc12` has a CC50 of 51.4 µM (cell growth or viability, MTT; 48 h).
For `CC(=O)Oc1ccc(Cn2cc(C)c(=O)[nH]c2=O)cc1C1OC(c2ccc(Cl)cc2)=NN1C(C)=O` (stereo not shown), the CC50 was greater than 100 µM (cell growth or viability, resazurin).
For `COc1ccc(/C=N\NC(=O)[C@]2(C)C3CC[C@]4(C)C(C(=O)C=C5C6[C@@H](C)[C@H](C)CC[C@]6(C)CC[C@]54C)[C@@]3(C)CC[C@H]2OC(C)=O)cc1` (stereo partly shown), the viability was 99% (cell growth or viability, MTT; 25 µM, 24 h).
`O=C(CCc1ccc(O)c(O)c1)NCCc1ccccc1` gave an IC50 of 35.5 ± 4.07 µM (cytotoxicity; 24 h).
For `CN(C)C1CCN(c2nc3oc4ccccc4c(=O)c3s2)CC1`, the CC50 was 84.6 µM (cell growth or viability, MTT; 48 h).
`COc1ccc(-c2coc3c(CC=C(C)C)c(O)c(CC=C(C)C)c(O)c3c2=O)cc1O` gave a viability of 63.9% (cell growth or viability, MTT; 25 µg/mL, 24 h).
`CC(=O)Oc1ccc(Cn2ccc(=O)[nH]c2=O)cc1C1OC(c2cccc(Cl)c2)=NN1C(C)=O` (stereo not shown) has a CC50 of greater than 100 µM (cell growth or viability, resazurin).
For `COc1ccc(/C=N\NC(=O)[C@]2(C)C3CC[C@]4(C)C(C(=O)C=C5C6[C@@H](C)[C@H](C)CC[C@]6(C)CC[C@]54C)[C@@]3(C)CC[C@H]2OC(C)=O)cc1O` (stereo partly shown), the viability was 92% (cell growth or viability, MTT; 25 µM, 24 h).
`CC(C)=CCc1c(O)c(CC=C(C)C)c2occ(-c3ccc(O)c(O)c3)c(=O)c2c1O` has a viability of 5.49% (cell growth or viability, MTT; 50 µg/mL, 24 h).
With `COc1ccc(CCNC(=O)CCc2ccc(O)c(O)c2)cc1OC` the IC50 was 52 ± 4.85 µM (cytotoxicity; 24 h).
With `CC(C)=CCc1cc(-c2coc3cc(O)c(CC=C(C)C)c(O)c3c2=O)ccc1O` the viability was 159% (cell growth or viability, MTT; 25 µg/mL, 24 h).
`C[C@H]1[C@H](C)CC[C@]2(C(=O)O)CC[C@]3(C)C(=CC[C@@H]4[C@@]5(C)CC[C@H](O[C@@H]6O[C@@H](C)[C@H](O)[C@@H](O)[C@H]6O)C(C)(C)[C@@H]5CC[C@]43C)[C@H]12`: “lowest cytotoxic concentration” 20 µM (added: LPS).
`COc1cc2c(cc1O)[C@]1(O)C(=O)c3c(O)cc4c(c3O[C@@H]1CO2)C=CC(C)(C)O4` gave a viability of 6.52% (cell growth or viability, MTT; 50 µg/mL, 24 h).
`O=C(/C=C/c1ccc(O)c(O)c1)NCCc1ccccc1` gave an IC50 of 35.2 ± 3.15 µM (cytotoxicity; 24 h).
`O=[N+]([O-])c1c(Br)c(Cl)c2cccnc2c1O` has an IC50 of roughly 52.2 µg/mL (cell growth or viability, CCK-8; 48 h).
`O=C(Nc1nc2ccccc2s1)C1CCN(S(=O)(=O)c2ccc(F)c(Cl)c2)CC1`: cytotoxicity “not toxic” (MTT; up to 30 µM, 24 h).
The CC50 of `CC(=O)Oc1ccc(Cn2ccc(=O)[nH]c2=O)cc1C1OC(c2ccccc2)=NN1C(C)=O` (stereo not shown) is reported as greater than 100 µM (cell growth or viability, resazurin).
The viability of `CC(C)=CCc1c2c(c(O)c3c(=O)c(-c4ccc(O)cc4)coc13)CC(C(C)(C)O)O2` (stereo not shown) is reported as 5.34% (cell growth or viability, MTT; 25 µg/mL, 24 h).
For `CCN(CC)c1nc2oc3ccccc3c(=O)c2s1`, the CC50 was 47.8 µM (cell growth or viability, MTT; 48 h).
For `CC(=O)Oc1ccc(Cn2cc(C)c(=O)[nH]c2=O)cc1C1OC(c2ccccc2)=NN1C(C)=O` (stereo not shown), the CC50 was greater than 100 µM (cell growth or viability, resazurin).
For `CC(=O)O[C@@H]1CC[C@@]2(C)C(CC[C@]3(C)C2C(=O)C=C2C4[C@@H](C)[C@H](C)CC[C@]4(C)CC[C@]23C)[C@@]1(C)c1nnc(SCC(=O)OC2CC(C)CCC2C(C)C)o1` (stereo partly shown), the viability was 99% (cell growth or viability, MTT; 25 µM, 24 h).
